Experimental data gathered from unrelated publications.
Parts stem from different laboratories: compare values within a part only.

Sample 1
Target: Centromere-binding protein 1, full length, N-terminal tag (CBF1, Saccharomyces cerevisiae, UniProt P17106, residues 1-351)
Sequence of UniProt P17106 (whole entry, looked up): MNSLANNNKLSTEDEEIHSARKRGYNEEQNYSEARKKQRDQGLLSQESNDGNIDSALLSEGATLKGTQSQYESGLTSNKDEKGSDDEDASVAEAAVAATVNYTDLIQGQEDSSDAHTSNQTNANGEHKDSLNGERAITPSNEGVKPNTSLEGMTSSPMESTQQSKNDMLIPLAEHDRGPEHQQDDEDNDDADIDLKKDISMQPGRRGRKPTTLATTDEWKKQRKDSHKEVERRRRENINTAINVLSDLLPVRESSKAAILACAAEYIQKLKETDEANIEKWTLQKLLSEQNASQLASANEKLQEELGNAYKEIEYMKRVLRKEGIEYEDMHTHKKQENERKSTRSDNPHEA
Method: protein-binding microarray
Molecule type: double-stranded DNA, one strand shown
Matrix: in vitro
Tested at: 0.8 µM
Setting: whole 60-bp probe, no competitor
Direction: higher = stronger binding
Constant ends, left off below: … GTCTTGATTCGCTTGACGCTGCTG
`TGTACGAAGCTATGTAACTTAATTATAGTAGTTAGG` has a fluorescence intensity of 508 a.u.
The fluorescence intensity of `TGTACGAAGCTATAATCCGTGCATATAGTAGTTAGG` is reported as 557 a.u.
`CTAAGCGTAATTGATTTCGTGATAGTTCGATCCTTC` has a fluorescence intensity of 507 a.u.
`GAAAGCTTATTCCCGCACGCTCACATGGTAATTTAG` gave a fluorescence intensity of 1180 a.u.
`TGTACGAAGCTATTGCACGACAGTATAGTAGTTAGG` has a fluorescence intensity of 544 a.u.
With `GAATCTAAGTTACCCCTCATGACTTCCCAAGTGTAG` the fluorescence intensity was 592 a.u.
The fluorescence intensity of `CTAGCGCGCGGTGTGATGGTGATGATAATGATGTTC` is reported as 571 a.u.
With `GAATGTGCAGCACTGCATGTGCGAATGGTCCATTAG` the fluorescence intensity was 540 a.u.
`CTACTGGCCTCTGATCACGTTACTTTATTACCCTTC` has a fluorescence intensity of 4570 a.u.
`GAACTTGGAGAATAACATGTGATCTGAAAACTCTAG` gave a fluorescence intensity of 4300 a.u.
`GAACATCACCGTTTTCACATGCTGTCTAGTGGCTAG` has a fluorescence intensity of 595 a.u.
`GAATCTTTACCTCGCCACGCGGAATAGTAAAACTAG` has a fluorescence intensity of 532 a.u.
With `CTAATTTCAGAGTTGCACGTTGGTATATCCTAATTC` the fluorescence intensity was 553 a.u.
`CTAGGAGAAAAGTCACGTGCAAAAAGAAATCATTTC` has a fluorescence intensity of 16700 a.u.
With `CTATAGTAGCAGGGTGACATGTTACTCCCACACTTC` the fluorescence intensity was 525 a.u.
For `CTAACGTAAGTTAAAGGTGACAAGCTCGGATCGTTC`, the fluorescence intensity was 573 a.u.
`TGTACGAAGCTATATCACGCAATTATAGTAGTTAGG` has a fluorescence intensity of 571 a.u.
The fluorescence intensity of `GAACTTTCAGCTGGTCACGCTATGCCTAAAGAATAG` is reported as 1630 a.u.
With `GAATCGTTTATACGTGACGTTGACGATGGGATTTAG` the fluorescence intensity was 579 a.u.

Sample 2
Target: Ras GTPase-activating protein-binding protein 1, full length (G3BP1, Homo sapiens, UniProt Q13283)
Sequence of UniProt Q13283 (whole entry, looked up): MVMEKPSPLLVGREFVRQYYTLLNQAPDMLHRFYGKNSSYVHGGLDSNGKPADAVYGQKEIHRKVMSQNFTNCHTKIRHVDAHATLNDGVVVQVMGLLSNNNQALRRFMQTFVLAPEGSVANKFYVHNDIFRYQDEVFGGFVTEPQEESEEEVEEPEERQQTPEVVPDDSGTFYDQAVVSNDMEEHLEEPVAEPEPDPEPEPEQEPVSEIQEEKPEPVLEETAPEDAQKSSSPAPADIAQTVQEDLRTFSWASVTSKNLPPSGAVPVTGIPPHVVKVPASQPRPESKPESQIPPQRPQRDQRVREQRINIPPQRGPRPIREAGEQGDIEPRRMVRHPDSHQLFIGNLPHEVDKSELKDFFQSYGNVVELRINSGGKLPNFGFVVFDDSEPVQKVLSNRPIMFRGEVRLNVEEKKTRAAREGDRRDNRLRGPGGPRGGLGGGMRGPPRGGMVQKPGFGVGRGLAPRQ
Method: RNA Bind-n-Seq
Molecule type: RNA
Matrix: in vitro
Tested at: 200 nM
Setting: whole 134-nt RNA, ends assumed
Together with: 150 mM KCl
Relative to: input library
Direction: higher = stronger binding
Constant ends, left off below: GGGAGUUCUACAGUCCGACGAUC … UGGAAUUCUCGGGUGUCAAGG
The log2 enrichment of `CAAGUCCUGUGCUACACAUCGUAUGUACCGAAUCGGAAAAGGGAAAAGGAAAAGGGAAAGUAUUAUGUUACGCCGUUCGGAUCUGCACUU` is reported as -0.939.
`UAACUUUAGAGGAGGAUCUGAUGGAUAUGGCAGUGGACGUGGAUUUGGGGAUGGCUAUAAUGGGUAUGGAGGAGGACCUGGAGGUGGCAA` gave a log2 enrichment of 0.229.
The log2 enrichment of `UGCAGUGAUGGUCAUUGUCCUCCAGAGCAGUGAUGGAGGAAAUACCAGCCCAGGAAGCAGCAGGGUCACCAAGGGUCCAGUUUCAGUCUU` is reported as -0.513.
For `UUCCCACAGCCCAAAAAUCUUCUCAACAGUGUGAUUGGAAGAGCCCUCGGCAUCUCACAUGCAAAAGACAAACUAGUCUACGUGCACACA`, the log2 enrichment was 0.174.
`CCUGUGCUACACAUCGUAUGUACCGAAUCAAACCCCCCCAAAUUUUUAAAUUUUUUUAAAAAAGUAUUAUGUUACGCCGUUCGGAUCUGC` gave a log2 enrichment of 0.232.
For `UCAAGUCCUGUGCUACACAUCGUAUGUACCGAAUCGGGAAGGGAAGGGGAAGGGGAAAGUAUUAUGUUACGCCGUUCGGAUCUGCACUUC`, the log2 enrichment was 1.06.
The log2 enrichment of `CCUGUGCUACACAUCGUAUGUACCGAAUCGGAAAAAAGGGGAAAAAAGGGGAAAAAAGGGGAAAGUAUUAUGUUACGCCGUUCGGAUCUG` is reported as -0.487.
For `GCAGGAAGUAAAAACAAAUGGAAAUGGUUCGGAUAGUGGCAGGGGUGGGGGUUGCUAAGGAAAGGGUGGGAUGGGAGUGGGUAAAGAGUU`, the log2 enrichment was 1.14.
The log2 enrichment of `AGUCCUGUGCUACACAUCGUAUGUACCGAAUCGGGUUUUUGGUUUUUGGGGUUUUUGGAAAGUAUUAUGUUACGCCGUUCGGAUCUGCAC` is reported as -0.982.

Sample 3
Target: Histone acetyltransferase KAT6A, winged helix 1, GST fusion (KAT6A, Homo sapiens, UniProt Q92794, residues 1-85)
Method: protein binding microarray
Molecule type: double-stranded DNA, one strand shown
Matrix: in vitro
Tested at: not given
Setting: 8-mer, flanks averaged, mean of 2 arrays, mostly near background
Relative to: not given
Direction: higher = stronger binding
Target sequence (chain): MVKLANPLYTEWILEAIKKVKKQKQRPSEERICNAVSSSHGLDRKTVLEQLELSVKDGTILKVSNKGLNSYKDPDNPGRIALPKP
For `AGACCCGG`, the E-score was 0.3.
The E-score of `ATGGCTCA` is reported as -0.295.
`ACCTGCGT` has an E-score of 0.0117.
`AACTGCTC` has an E-score of 0.0148.
`CCAAGATA` gave an E-score of -0.232.
`GTCTGGGA` has an E-score of -0.239.
For `ACGAAATC`, the E-score was -0.0335.
`GTATGCTA` has an E-score of 0.0428.
The E-score of `CACCTCGG` is reported as 0.0953.
With `GATAAGCA` the E-score was -0.0206.
For `CTTAGATA`, the E-score was -0.0827.
The E-score of `GCCAATCA` is reported as -0.21.
`CCGTAACA` has an E-score of 0.236.
For `CTAAGTGA`, the E-score was -0.104.
With `AAGCACGC` the E-score was 0.0686.
With `AACTTAGC` the E-score was -0.104.
With `TAAATAAA` the E-score was -0.0668.
`GCCTAGTA` gave an E-score of 0.00191.
`AACCCACC` gave an E-score of -0.0385.
For `CGAAGTCC`, the E-score was 0.139.
`GTCAGGGA` gave an E-score of -0.116.
For `CGCACACA`, the E-score was 0.183.
For `CTATGAAA`, the E-score was 0.0159.
The E-score of `ACGCCTCT` is reported as -0.0469.
With `GCCAGCCC` the E-score was -0.0828.

Sample 4
Target: RNA binding protein fox-1 homolog 2, RRM domain, GST-SBP tag (RBFOX2, Homo sapiens, UniProt O43251-10, residues 100-194)
Method: RNA Bind-n-Seq
Molecule type: RNA
Matrix: in vitro
Tested at: 365 nM
Setting: natural RNA segment, single round, ends assumed
Relative to: no-protein control
Direction: higher = stronger binding
Constant ends, left off below: GGGAGUUCUACAGUCCGACGAUC … UGGAAUUCUCGGGUGCCAA
Residues (chain): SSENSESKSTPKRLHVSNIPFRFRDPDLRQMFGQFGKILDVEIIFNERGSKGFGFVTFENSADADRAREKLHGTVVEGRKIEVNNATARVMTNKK
Under “RBNS enrichment (R)”, `CUCUUGCCCUCCCUGCCUAAGAGCUACUGGGAUCACGUUAGCGGGCAUUUAGGCUUUGAUGAGAGGGCACAGUUUGAGUUAGGUUUACCUCCCCCUUUCUGUGCCUGGGA` is recorded as 0.324.
For `AGAGGAAGAUGCUAUGAAAGAAAAAAAAAAUUCCUAAAACUGUGGAAUGGAUCACGUAGACAUGUAACCCAGCAGCAGUUUGCUUCUGUUGUCCACUGAUUAAUCAGCCU`, “RBNS enrichment (R)” read 0.876.
`UUUAAGUGUUCAUGUUCUAGUGAACACAGCUUGUUCAGGAACAAACACUAAAACGAUUUGAGUAGAGGCUGCUGGUCACCUUUUGUGACCUGAGGAAUCCCAGGCCUGUG`: “RBNS enrichment (R)” 0.419.
`AGGGUGGGGGUUGGGGGAAGCUUGACCUUGUGUCUUCGUCAAUAAACUCACAUUUACACAAAAUGAAGUUUGUGGUAUGUAUUUUUUUCCCCAGAACUGACAUUCUAGGA` — result for “RBNS enrichment (R)”: 0.546.
`UGGCUCGAGGUAAACCCUUUUCAAGGAAAAACAACUCUAGGAUUUCUUUUUUCUGUGUACGUAGACCAGUCCCAUCAGUGUAUAAUCUCUCUCUCACACGCCUCUCUCCA` — result for “RBNS enrichment (R)”: 0.776.
For `ACCUAAUGGAGGCUGAGAUCUUGGAUGCAGACUCGGACUUUGAGCCUGCAGGGCAGGUCCUAGGAUGGGAAAGACAAAUGUACACCUUUCUAUGGCUCUUCCUGAGAGCA`, “RBNS enrichment (R)” read 9.19.
`AUCUAUACAAUUAAACAAAUUUAAUGAACCCUAUGAAUUAUUCUUUGAUGUGUUUGUUUUUGUAAGAAAUAUGGAGGAACUGAAUUAUAAAGAAAAUAAAAUCCUUCUGU` — result for “RBNS enrichment (R)”: 0.83.
Under “RBNS enrichment (R)”, `CCAACCCUGCCCCCUGAUCCCGGGCUGGAAGCCUUCCCUCCUUCACUUAAGUUAUUGUGUUAAACCAAAGUUUACAGUGUCUGUUGGUAGCAAGACCCCCUCCUCCCCUC` is recorded as 2.51.

Repeated from above (sample 1):
With `GAATCTAAGTTACCCCTCATGACTTCCCAAGTGTAG` the fluorescence intensity was 592 a.u.
`GAACATCACCGTTTTCACATGCTGTCTAGTGGCTAG` has a fluorescence intensity of 595 a.u.
With `GAATGTGCAGCACTGCATGTGCGAATGGTCCATTAG` the fluorescence intensity was 540 a.u.
With `CTATAGTAGCAGGGTGACATGTTACTCCCACACTTC` the fluorescence intensity was 525 a.u.
`TGTACGAAGCTATGTAACTTAATTATAGTAGTTAGG` has a fluorescence intensity of 508 a.u.
With `CTAATTTCAGAGTTGCACGTTGGTATATCCTAATTC` the fluorescence intensity was 553 a.u.
`CTACTGGCCTCTGATCACGTTACTTTATTACCCTTC` has a fluorescence intensity of 4570 a.u.
The fluorescence intensity of `CTAGCGCGCGGTGTGATGGTGATGATAATGATGTTC` is reported as 571 a.u.
`TGTACGAAGCTATTGCACGACAGTATAGTAGTTAGG` has a fluorescence intensity of 544 a.u.
`GAACTTGGAGAATAACATGTGATCTGAAAACTCTAG` gave a fluorescence intensity of 4300 a.u.
